Measurements gathered from unrelated publications.
Each line is one published result; not all experiments were run side by side.
UCHL1: Ubiquitin carboxyl-terminal hydrolase isozyme L1 (UCHL1, Homo sapiens, UniProt P09936)
Sequence of UniProt P09936 (whole entry, looked up): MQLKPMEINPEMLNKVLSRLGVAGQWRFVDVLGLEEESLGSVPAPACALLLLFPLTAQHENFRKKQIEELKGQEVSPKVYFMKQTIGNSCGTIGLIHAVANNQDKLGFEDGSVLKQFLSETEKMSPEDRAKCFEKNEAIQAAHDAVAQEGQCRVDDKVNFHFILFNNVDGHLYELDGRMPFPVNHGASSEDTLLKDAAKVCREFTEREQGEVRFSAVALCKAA
Sequence of UniProt Q07794 (whole entry, looked up): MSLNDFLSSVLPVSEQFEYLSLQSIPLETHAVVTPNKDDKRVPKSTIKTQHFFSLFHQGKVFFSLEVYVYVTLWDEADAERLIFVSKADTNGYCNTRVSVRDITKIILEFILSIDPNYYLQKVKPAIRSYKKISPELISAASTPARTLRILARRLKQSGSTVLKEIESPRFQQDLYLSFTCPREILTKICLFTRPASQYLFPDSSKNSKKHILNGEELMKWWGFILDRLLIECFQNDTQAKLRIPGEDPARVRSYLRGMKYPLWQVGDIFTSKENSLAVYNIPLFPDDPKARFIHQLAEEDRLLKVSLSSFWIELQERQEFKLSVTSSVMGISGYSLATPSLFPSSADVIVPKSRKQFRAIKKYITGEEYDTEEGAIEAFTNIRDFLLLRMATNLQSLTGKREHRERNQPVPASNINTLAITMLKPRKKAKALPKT

Structure (SMILES) | target or system | test | test system | setting | scale | quantity | result
C[C@H](Oc1ccc(Br)cc1-c1ccon1)C(=O)O |  | muscle velocity recovery cycles | human, tibialis anterior muscle | 400 mg once daily, multiple doses, multiple ascending dose | baseline: placebo | CMAP amplitude | -0.082 mV
S=C(S)N1CCCC1 | Toxoplasma gondii | parasite growth | HFF, bradyzoite, glutamine-induced |  |  | EC90 | 22.2 µM
Oc1ccccc1-c1n[nH]cc1-c1ccnc2ccccc12 | BUB1 (Candida albicans) | kinase binding, MIB/MS competition | Candida albicans lysate | 10 µM | baseline: DMSO | log2 fold change | 0.45
O=C1C(O)=C([C@H]2CC[C@H](c3ccc(Cl)cc3)CC2)C(=O)c2ccccc21 | Toxoplasma gondii | bradyzoite growth |  | glutamine-induced bradyzoites, glucose-free medium |  | EC50 | 0.06 µM
CC(C)NCC(O)c1ccc(O)c(O)c1 (stereo not drawn) |  |  | ventricular cardiomyocytes, C57BL/6 mouse | dose not given, 0.784 s |  | sarcomere length | 1.7 µm
O=S1(=O)C=C(Cl)c2ccccc21 | Histone acetyltransferase RTT109, with Vps75 (Saccharomyces cerevisiae, UniProt Q07794) | enzyme activity, inhibitor, HTS, CPM-based, dose response |  |  |  | IC50 | > 125 µM
OC(CCN1CCCCC1)(c1ccccc1)C1CC2C=CC1C2 (stereo not drawn) |  | resting-state EEG | healthy elderly humans | oral, 4 mg, eyes open, LS mean | baseline: baseline | change, Gamma EEG power, in O2-Pz | 1.9%
N#CC(=Cc1cccnc1)C(=O)NCc1ccccc1 | UCHL1 | covalent, intact protein LC-MS |  | 12.5 µM |  | labelling | 10.1%
NC(=O)c1cnc2[nH]ccc2c1N[C@@H]1[C@@H]2CC3C[C@H]1C[C@@](O)(C3)C2 |  | CD4+ naive T cells, flow cytometry | Japanese humans, peripheral blood | 60 mg single dose | baseline: baseline | percent change | -1.33%
c1coc(-c2n[nH]cc2-c2ccnc3ccccc23)c1 | MKK2 (Candida albicans) | kinase binding, MIB/MS competition | Candida albicans lysate | 10 µM | baseline: DMSO | log2 fold change | -0.04
Cn1cc(-c2ccc(-c3cncc(Cl)c3N3CCC4(CCNC4=O)CC3)cc2)cn1 | COLO 205 | gene expression, microarray, item: IFIT2 mRNA |  | concentration not given, 2 h | baseline: untreated cells | log2 fold change | 3.3
O=C(Nc1ccncc1)c1cc([N+](=O)[O-])ccc1Cl | Toxoplasma gondii | parasite growth | HFF, bradyzoite, glutamine-induced |  |  | EC90 | 1.28 µM
O=C(CCl)N1c2ccccc2SCC1c1ccccc1 (stereo not drawn) | UCHL1 | covalent, intact protein LC-MS |  | 12.5 µM |  | labelling | 10.6%
O=C(c1ccc(OCCN2CCCCC2)cc1)c1c(-c2ccc(O)cc2)sc2cc(O)ccc12 | Toxoplasma gondii | parasite growth | HFF, bradyzoite, alkaline-induced |  |  | EC50 | 7.38 µM
OC(C#Cc1ccc(F)c(F)c1)c1ccccc1 (stereo not drawn) | Pseudomonas aeruginosa | static biofilm | PA14 | 10 µM, 24 h, static | baseline: DMSO | biofilm formation | 78%

Excerpt of the above:
Structure (SMILES) | target or system | test | test system | setting | scale | quantity | result
OC(CCN1CCCCC1)(c1ccccc1)C1CC2C=CC1C2 (stereo not drawn) |  | resting-state EEG | healthy elderly humans | oral, 4 mg, eyes open, LS mean | baseline: baseline | change, Gamma EEG power, in O2-Pz | 1.9%
N#CC(=Cc1cccnc1)C(=O)NCc1ccccc1 | UCHL1 | covalent, intact protein LC-MS |  | 12.5 µM |  | labelling | 10.1%
